{"data": "Measurements pooled from the literature", "note": "Every numbered part comes from another study and shows a few of its results, in no order.", "chain of UniProt Q16566 (whole entry, looked up)": "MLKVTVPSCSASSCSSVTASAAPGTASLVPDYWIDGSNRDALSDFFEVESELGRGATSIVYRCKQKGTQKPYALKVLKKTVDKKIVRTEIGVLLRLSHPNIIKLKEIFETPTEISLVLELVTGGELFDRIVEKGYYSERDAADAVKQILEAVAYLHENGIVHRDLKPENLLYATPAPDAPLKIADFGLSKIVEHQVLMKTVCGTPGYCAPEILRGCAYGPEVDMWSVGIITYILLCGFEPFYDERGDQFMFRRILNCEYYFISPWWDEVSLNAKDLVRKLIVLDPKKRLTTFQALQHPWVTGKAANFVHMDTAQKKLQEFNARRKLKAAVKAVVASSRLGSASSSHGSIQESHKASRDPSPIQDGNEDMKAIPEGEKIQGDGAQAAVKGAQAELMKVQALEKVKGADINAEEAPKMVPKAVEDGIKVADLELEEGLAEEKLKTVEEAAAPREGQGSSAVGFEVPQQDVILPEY", "chain of UniProt P52333 (whole entry, looked up)": "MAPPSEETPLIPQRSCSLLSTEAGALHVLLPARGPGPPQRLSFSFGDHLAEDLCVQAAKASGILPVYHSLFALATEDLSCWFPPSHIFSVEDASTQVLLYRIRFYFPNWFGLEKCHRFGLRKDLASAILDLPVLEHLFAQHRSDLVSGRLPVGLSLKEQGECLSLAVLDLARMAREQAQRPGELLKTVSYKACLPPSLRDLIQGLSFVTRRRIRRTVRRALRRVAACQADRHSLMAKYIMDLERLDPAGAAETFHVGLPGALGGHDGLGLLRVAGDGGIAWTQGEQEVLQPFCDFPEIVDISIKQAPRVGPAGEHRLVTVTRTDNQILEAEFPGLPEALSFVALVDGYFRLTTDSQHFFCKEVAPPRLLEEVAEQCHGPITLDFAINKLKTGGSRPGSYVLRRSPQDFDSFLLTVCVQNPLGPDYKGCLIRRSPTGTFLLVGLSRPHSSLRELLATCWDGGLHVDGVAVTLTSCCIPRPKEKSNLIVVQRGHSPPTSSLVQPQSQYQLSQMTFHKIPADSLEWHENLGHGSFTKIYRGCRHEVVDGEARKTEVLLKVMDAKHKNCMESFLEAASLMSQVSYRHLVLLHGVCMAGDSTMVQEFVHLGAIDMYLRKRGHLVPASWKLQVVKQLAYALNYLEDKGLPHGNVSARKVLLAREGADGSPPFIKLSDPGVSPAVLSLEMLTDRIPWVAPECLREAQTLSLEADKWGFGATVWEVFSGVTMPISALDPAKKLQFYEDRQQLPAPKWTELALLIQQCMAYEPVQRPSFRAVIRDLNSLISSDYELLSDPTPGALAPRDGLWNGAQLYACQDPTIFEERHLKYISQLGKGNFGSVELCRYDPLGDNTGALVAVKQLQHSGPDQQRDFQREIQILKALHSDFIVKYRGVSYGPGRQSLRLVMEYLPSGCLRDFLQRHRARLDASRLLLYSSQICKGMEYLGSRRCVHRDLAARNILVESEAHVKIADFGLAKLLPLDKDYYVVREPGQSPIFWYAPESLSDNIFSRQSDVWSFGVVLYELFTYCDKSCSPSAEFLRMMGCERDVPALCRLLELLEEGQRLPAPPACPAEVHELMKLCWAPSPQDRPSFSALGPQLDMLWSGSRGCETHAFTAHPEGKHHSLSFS", "chain of UniProt Q15139 (whole entry, looked up)": "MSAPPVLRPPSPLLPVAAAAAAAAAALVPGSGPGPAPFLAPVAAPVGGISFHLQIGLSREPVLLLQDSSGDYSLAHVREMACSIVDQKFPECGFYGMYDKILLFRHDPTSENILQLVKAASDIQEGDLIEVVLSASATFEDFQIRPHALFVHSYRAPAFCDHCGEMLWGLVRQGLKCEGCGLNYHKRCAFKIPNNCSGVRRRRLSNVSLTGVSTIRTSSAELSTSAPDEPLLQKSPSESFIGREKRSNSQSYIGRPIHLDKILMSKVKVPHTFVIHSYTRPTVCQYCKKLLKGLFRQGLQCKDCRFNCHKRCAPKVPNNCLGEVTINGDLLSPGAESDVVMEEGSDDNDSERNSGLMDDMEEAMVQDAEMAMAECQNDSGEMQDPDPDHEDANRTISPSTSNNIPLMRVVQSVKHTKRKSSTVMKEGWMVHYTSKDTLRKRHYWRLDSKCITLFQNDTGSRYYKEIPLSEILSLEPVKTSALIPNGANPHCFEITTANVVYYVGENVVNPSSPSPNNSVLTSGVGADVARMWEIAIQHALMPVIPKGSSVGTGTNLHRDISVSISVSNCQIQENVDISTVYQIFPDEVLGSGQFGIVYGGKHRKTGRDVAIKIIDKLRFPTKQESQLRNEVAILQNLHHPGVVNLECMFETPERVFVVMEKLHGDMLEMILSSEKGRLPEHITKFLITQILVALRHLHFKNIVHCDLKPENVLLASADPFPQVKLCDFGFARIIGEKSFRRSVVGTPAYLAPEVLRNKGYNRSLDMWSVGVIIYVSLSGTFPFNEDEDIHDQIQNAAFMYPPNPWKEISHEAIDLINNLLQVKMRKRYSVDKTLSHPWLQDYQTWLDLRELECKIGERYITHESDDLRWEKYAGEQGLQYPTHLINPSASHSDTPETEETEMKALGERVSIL", "chain of UniProt Q9BQI3 (whole entry, looked up)": "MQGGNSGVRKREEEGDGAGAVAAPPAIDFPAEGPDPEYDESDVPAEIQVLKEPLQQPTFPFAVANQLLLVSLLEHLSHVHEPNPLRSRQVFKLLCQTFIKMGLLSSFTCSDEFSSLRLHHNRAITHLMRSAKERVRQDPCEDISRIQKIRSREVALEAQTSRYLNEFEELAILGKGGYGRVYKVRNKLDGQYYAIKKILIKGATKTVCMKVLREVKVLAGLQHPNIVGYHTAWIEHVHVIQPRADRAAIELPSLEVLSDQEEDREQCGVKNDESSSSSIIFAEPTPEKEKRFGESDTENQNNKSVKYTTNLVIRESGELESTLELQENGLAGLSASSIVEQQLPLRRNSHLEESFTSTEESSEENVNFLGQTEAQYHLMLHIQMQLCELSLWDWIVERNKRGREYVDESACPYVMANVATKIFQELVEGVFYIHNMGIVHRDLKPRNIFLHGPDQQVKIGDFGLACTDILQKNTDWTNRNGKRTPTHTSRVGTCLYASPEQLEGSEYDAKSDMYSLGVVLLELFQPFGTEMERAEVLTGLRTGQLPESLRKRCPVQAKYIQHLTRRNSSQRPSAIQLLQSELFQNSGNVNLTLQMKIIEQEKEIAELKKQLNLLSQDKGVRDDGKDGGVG", "chain of UniProt P42681 (whole entry, looked up)": "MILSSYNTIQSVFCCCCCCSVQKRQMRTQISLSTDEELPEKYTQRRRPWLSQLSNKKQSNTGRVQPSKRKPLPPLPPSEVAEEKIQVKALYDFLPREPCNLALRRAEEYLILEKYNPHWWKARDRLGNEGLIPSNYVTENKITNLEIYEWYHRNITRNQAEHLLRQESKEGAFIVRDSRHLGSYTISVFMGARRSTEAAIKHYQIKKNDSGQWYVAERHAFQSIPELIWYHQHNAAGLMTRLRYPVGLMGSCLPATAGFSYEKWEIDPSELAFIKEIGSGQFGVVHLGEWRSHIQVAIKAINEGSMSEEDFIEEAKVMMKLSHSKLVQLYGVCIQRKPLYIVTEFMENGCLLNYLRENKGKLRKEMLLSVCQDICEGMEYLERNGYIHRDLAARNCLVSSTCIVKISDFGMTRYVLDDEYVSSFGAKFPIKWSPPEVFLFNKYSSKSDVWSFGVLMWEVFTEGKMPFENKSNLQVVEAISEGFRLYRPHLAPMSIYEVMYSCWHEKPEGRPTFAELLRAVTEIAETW"}
{"data": "Series 1", "SMILES": "COCCOc1nc(-c2ccc(Cl)nc2)nc2c1CN(C(=O)c1ncn3ccccc13)CC2", "read-out": "cell-free assay", "method": "competition with immobilised ligand", "concentration": "0.1 µM"}
{"target": "EGFR (Homo sapiens, UniProt P00533, L858R)", "remaining binding [%]": 83}
{"target": "EPHA5 (Homo sapiens, UniProt P54756)", "remaining binding [%]": 99}
{"target": "MERTK (Homo sapiens, UniProt Q12866)", "remaining binding [%]": 89}
{"target": "CAMK4 (Homo sapiens, UniProt Q16566)", "remaining binding [%]": 100}
{"target": "KIT (Homo sapiens, UniProt P10721, D816V)", "remaining binding [%]": 100}
{"target": "Tyrosine-protein kinase JAK3, JH1 (JAK3, Homo sapiens, UniProt P52333)", "remaining binding [%]": 93}
{"target": "BRSK1 (Homo sapiens, UniProt Q8TDC3)", "remaining binding [%]": 100}
{"target": "TEK (Homo sapiens, UniProt Q02763)", "remaining binding [%]": 100}
{"target": "EIF2AK1 (Homo sapiens, UniProt Q9BQI3)", "remaining binding [%]": 100}
{"data": "Series 2", "target": "Calcium/calmodulin-dependent protein kinase type II subunit alpha (CAMK2A, Homo sapiens, UniProt Q9UQM7)", "read-out": "enzyme activity", "action": "inhibitor", "concentration": "10 µM", "chain of UniProt Q9UQM7 (whole entry, looked up)": "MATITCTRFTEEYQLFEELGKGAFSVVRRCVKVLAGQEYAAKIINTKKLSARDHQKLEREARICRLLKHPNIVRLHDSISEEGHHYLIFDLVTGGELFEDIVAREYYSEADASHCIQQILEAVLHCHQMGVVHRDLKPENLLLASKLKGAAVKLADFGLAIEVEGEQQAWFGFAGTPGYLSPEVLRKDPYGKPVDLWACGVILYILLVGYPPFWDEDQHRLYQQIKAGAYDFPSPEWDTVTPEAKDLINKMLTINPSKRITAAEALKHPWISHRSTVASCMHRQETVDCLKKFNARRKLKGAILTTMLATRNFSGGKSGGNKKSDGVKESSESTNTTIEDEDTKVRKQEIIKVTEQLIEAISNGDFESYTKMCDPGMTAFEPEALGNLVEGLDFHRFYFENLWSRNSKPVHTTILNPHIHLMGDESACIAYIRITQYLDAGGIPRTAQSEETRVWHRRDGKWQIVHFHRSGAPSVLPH"}
{"Compound": "C[C@H](CC(=O)C[C@@H](C)[C@H]1C[C@H](O)[C@@]2(C)C3=C(C(=O)C[C@]12C)[C@@]1(C)CCC(=O)C(C)(C)[C@@H]1C[C@@H]3O)C(=O)O", "inhibition [%]": -41}
{"Compound": "CO[C@@H]1[C@@H](O[C@@H]2O[C@H](C)[C@@H](O[C@H]3C[C@@](C)(O)[C@@H](OC(=O)CC(C)C)[C@H](C)O3)[C@H](N(C)C)[C@H]2O)[C@@H](CC=O)C[C@@H](C)[C@@H](O)/C=C/C=C/C[C@@H](C)OC(=O)C[C@H]1OC(C)=O", "inhibition [%]": -2}
{"Compound": "CN[C@@H]1[C@@H](O)[C@@H](O[C@@H]2[C@@H](O)[C@H](O[C@H]3OC(CN)=CC[C@H]3N)[C@@H](N)C[C@H]2N)OC[C@]1(C)O", "inhibition [%]": -12}
{"Compound": "O=C1N[C@@H](Cc2ccccc2)C(=O)N2CCC[C@@H]12", "inhibition [%]": -53}
{"data": "Series 3", "Structure (SMILES)": "C=CC(=O)N1CCC([C@@H]2CCNc3c(C(N)=O)c(-c4ccc(Oc5ccccc5)cc4)nn32)CC1", "read-out": "enzyme activity", "action": "inhibitor", "concentration": "1 µM"}
{"target": "CAMK4 (Homo sapiens, UniProt Q16566)", "inhibition [%]": 0}
{"target": "NEK10 (Homo sapiens, UniProt Q6ZWH5)", "inhibition [%]": 0}
{"target": "TXK (Homo sapiens, UniProt P42681)", "inhibition [%]": 97}
{"target": "MAPK3 (Homo sapiens, UniProt P27361)", "inhibition [%]": 3}
{"target": "PIK3CA (Homo sapiens, UniProt P42336, C420R)", "inhibition [%]": 8}
{"target": "PRKD1 (Homo sapiens, UniProt Q15139)", "inhibition [%]": 4}
{"data": "Series 4", "target": "Protein kinase C beta type, isoform beta-I (PRKCB, Homo sapiens, UniProt P05771)", "read-out": "enzyme activity", "action": "inhibitor", "concentration": "0.5 µM", "baseline": "control", "chain of UniProt P05771 (whole entry, looked up)": "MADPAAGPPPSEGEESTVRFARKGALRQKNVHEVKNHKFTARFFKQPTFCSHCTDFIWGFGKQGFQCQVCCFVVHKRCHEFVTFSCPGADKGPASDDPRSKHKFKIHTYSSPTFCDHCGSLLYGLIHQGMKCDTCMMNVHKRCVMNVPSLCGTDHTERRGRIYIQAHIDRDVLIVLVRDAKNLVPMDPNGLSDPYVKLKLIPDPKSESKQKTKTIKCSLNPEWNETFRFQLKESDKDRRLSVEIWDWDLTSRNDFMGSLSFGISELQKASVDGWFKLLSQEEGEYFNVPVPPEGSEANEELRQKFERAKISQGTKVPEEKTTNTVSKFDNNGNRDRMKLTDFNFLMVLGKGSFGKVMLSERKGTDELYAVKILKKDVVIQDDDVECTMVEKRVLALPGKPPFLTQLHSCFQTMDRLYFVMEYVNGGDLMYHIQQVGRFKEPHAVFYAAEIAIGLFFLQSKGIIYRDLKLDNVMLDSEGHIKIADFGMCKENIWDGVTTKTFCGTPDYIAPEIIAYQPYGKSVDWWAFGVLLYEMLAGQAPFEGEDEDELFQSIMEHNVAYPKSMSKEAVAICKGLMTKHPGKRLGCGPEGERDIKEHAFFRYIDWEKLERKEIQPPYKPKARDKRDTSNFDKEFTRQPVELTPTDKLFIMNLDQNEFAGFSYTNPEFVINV"}
{"Structure (SMILES)": "Cc1ccc(NC(=O)c2ccc(CN3CCN(C)CC3)cc2)cc1Nc1nc(-c2cccnc2)cs1", "remaining activity": "101%"}
{"Structure (SMILES)": "COc1ccc(CNC(=O)Nc2ncc([N+](=O)[O-])s2)cc1", "remaining activity": "103%"}
{"Structure (SMILES)": "Nc1ncnc2n[nH]c(Nc3ccc(F)cc3)c12", "remaining activity": "95.9%"}
{"Structure (SMILES)": "CCOC(=O)c1c(C)[nH]c(/C=C2\\C(=O)Nc3ccccc32)c1C", "remaining activity": "103%"}
{"Structure (SMILES)": "O=c1c2ccccc2[nH]c(=S)n1CCN1CCC(=C(c2ccc(F)cc2)c2ccc(F)cc2)CC1", "remaining activity": "96%"}
{"Structure (SMILES)": "CO[C@H]1C[C@@H]2CC[C@@H](C)[C@@](O)(O2)C(=O)C(=O)N2CCCC[C@H]2C(=O)O[C@H]([C@H](C)C[C@@H]2CC[C@@H](O)[C@H](OC)C2)CC(=O)[C@H](C)/C=C(\\C)[C@@H](O)[C@@H](OC)C(=O)[C@H](C)C[C@H](C)/C=C/C=C/C=C/1C", "remaining activity": "102%"}
{"Structure (SMILES)": "COc1cc2ncnc(Nc3ccc(Oc4ccccc4)cc3)c2cc1OC", "remaining activity": "109%"}
{"Structure (SMILES)": "COc1cc2nccc(Oc3ccc(NC(=S)NC(=O)c4ccccc4C)cc3)c2cc1OC", "remaining activity": "91.9%"}
{"Structure (SMILES)": "Cc1cccc(-c2[nH]c(C(C)(C)C)nc2-c2ccc3c(c2)OCO3)n1", "remaining activity": "82.5%"}
{"Structure (SMILES)": "CNC(=O)c1cc(Oc2ccc(NC(=O)Nc3ccc(Cl)c(C(F)(F)F)c3)cc2)ccn1", "remaining activity": "95.1%"}
{"Structure (SMILES)": "C#Cc1cccc(Nc2ncnc3cc(OCCOC)c(OCCOC)cc23)c1", "remaining activity": "92.4%"}
{"Structure (SMILES)": "O=S(=O)(c1cccc2cnccc12)N1CCCNCC1", "remaining activity": "94.6%"}
{"Structure (SMILES)": "OCC(O)CCON=C1C(c2c(O)[nH]c3ccccc23)=Nc2ccccc21 (centres unmarked)", "remaining activity": "93.6%"}
{"Structure (SMILES)": "COc1ccc(C(=O)Nc2sc3c(c2C(N)=O)CCCC3)cc1OC", "remaining activity": "91.8%"}
{"Structure (SMILES)": "Cc1ccc(Nc2nccc(N(C)c3ccc4c(C)n(C)nc4c3)n2)cc1S(N)(=O)=O", "remaining activity": "91%"}
{"Structure (SMILES)": "Cn1sc(=O)n(Cc2ccccc2)c1=O", "remaining activity": "110%"}
{"note": "A few entries again (series 4):"}
{"Structure (SMILES)": "C#Cc1cccc(Nc2ncnc3cc(OCCOC)c(OCCOC)cc23)c1", "remaining activity": "92.4%"}
{"Structure (SMILES)": "O=c1c2ccccc2[nH]c(=S)n1CCN1CCC(=C(c2ccc(F)cc2)c2ccc(F)cc2)CC1", "remaining activity": "96%"}
